{"data": "Results gathered from unrelated publications", "note": "Each line is one published result; not all experiments were run side by side. ± gives the spread as reported."}
{"SMILES": "Cc1ccco1", "test": "metabolic activation to acetaldehyde", "test system": "male Sprague-Dawley rats, pooled liver microsomes", "conditions": "10 min, low concentrations", "endpoint": "Km", "value": "11 µM"}
{"SMILES": "COc1c(OCCCN2CCOCC2)ccc2c1N=C(NC(=O)c1cnc(N)nc1)N1CCN=C21", "test system": "human patients, plasma", "conditions": "intravenous, 0.4 mg/kg weekly, cycle 1 day 15, added: refametinib 30 mg twice daily oral", "endpoint": "AUC(0-25 h)", "value": "743 ng·h/mL"}
{"SMILES": "CCN(CC)C(=S)SSC(=S)N(CC)CC", "test": "shake-flask", "test system": "PEG400", "conditions": "37 °C", "endpoint": "thermodynamic solubility", "value": "69.6 ± 3.26 mg/g"}
{"SMILES": "C/C=C/C=C/C=C\\CC/C=C/C(=O)NCC(C)(C)O", "test system": "rat, small intestine site 4 contents", "conditions": "oral, dose not given, 2 h, no β-glucuronidase treatment", "how to read": "reference: ingested amount", "endpoint": "recovery", "value": "0.02%"}
{"SMILES": "O=C(O)c1cc(-c2ccc(F)cc2F)ccc1O", "test": "shake-flask", "test system": "Captex 355", "conditions": "37 °C", "endpoint": "thermodynamic solubility", "value": "16.5 ± 1.73 mg/g"}
{"SMILES": "Cn1c(-c2ccc(C(N)=O)cc2F)nnc1C(C)(C)Oc1c(F)cc(Cl)cc1F", "test system": "young non-Japanese healthy subjects, plasma", "conditions": "oral, 0.2 mg once daily, 3 mg loading day 1, min-max, last dosing day", "endpoint": "apparent volume of distribution Vz/F", "value": "809 to 5850 L"}
{"SMILES": "C=CC(N)CCC(=O)O (stereo not drawn)", "test system": "male Sprague-Dawley rat, plasma", "conditions": "oral, 10 mg/kg, formulation 9, added: low-fat infant formula 1500 mg/kg", "endpoint": "Tmax (median)", "value": "40.2 min"}
{"SMILES": "CC(C)CCCCC(=O)N[C@@H](CCN)C(=O)N[C@H](C(=O)N[C@@H](CCN)C(=O)N[C@H]1CCNC(=O)[C@H]([C@@H](C)O)NC(=O)[C@H](CCN)NC(=O)[C@H](CCN)NC(=O)[C@H](CC(C)C)NC(=O)[C@@H](Cc2ccccc2)NC(=O)[C@H](CCN)NC1=O)[C@@H](C)O", "test": "UPLC-MS/MS", "test system": "intensive care patients Non-AKI, plasma", "conditions": "iv, dose not given, 6 h post-dose, steady state, polymyxin B dosing", "endpoint": "mid-interval concentration", "value": "500 ± 200 ng/mL"}
{"SMILES": "CC(=O)Oc1ccccc1C(=O)O", "test system": "male Hartley guinea pig, anaesthetized", "conditions": "intravenous infusion, 3 mg/kg, 10 min infusion", "how to read": "reference: baseline", "endpoint": "QTc change", "value": "1.3 ± 0.6%"}
{"SMILES": "Cc1cc(-n2c(=O)[nH]c(=O)n(C)c2=O)ccc1Oc1ccc(SC(F)(F)F)cc1", "test": "shake-flask", "test system": "Captex 355", "conditions": "37 °C", "endpoint": "thermodynamic solubility", "value": "2.06 ± 0.15 mg/g"}
{"SMILES": "O=C1N=C(N2CCOCC2)CN1c1ccc(Cl)cc1", "test system": "beagle dog, male, plasma", "conditions": "oral, 30 mg/kg, tablets, fasted", "endpoint": "apparent oral clearance", "value": "5.48 mL/min/kg"}
{"SMILES": "C[N+]1(CC(=O)OC2CCCCCCCCCCC2)CCCC1", "test": "metabolic stability", "test system": "male CD-1 mouse, liver microsomes", "conditions": "1 µM, pH 7.4", "endpoint": "microsomal CLint", "value": "368 µL/min/mg"}
{"SMILES": "CS(=O)(=O)OC[C@H](O)[C@@H]1CO1", "test system": "Wistar rat, female, red blood cell lysate", "conditions": "intraperitoneal, 500 mg/kg of treosulfan, 4 h", "endpoint": "concentration", "value": "3.1 µM"}
{"SMILES": "CCn1c2ccccc2c2cc(-n3nncc3-c3ccccc3)ccc21", "test system": "female BALB/c mouse, kidney", "conditions": "oral, 10 mg/kg, single dose", "endpoint": "Tmax", "value": "30 min"}
{"SMILES": "Cc1nc2cccc(OCC(C)(C)C(=O)NC(C)C)c2c(N)c1C(=O)O", "test system": "Crl:CD(SD) rat, male, plasma", "conditions": "oral gavage, 10 mg/kg, day 7", "endpoint": "AUC(0-last)", "value": "48.1 ± 33.2 ng·h/mL"}
{"SMILES": "C[C@]12CC[C@@H]3c4ccc(O)cc4CC[C@H]3[C@@H]1C[C@@H](O)[C@@H]2O", "test": "GC-MS", "test system": "breast cancer women on NSAI, serum", "conditions": "vaginal, 0.03 mg, 3 h, day 0", "endpoint": "maximum serum concentration", "value": "0.16 ng/mL"}
{"SMILES": "O=C(O)C[C@H](O)C[C@H](O)/C=C/c1c(C2CC2)nc2ccccc2c1-c1ccc(F)cc1", "test system": "male Sprague Dawley rat, control, plasma", "conditions": "oral, 2.5 mg/kg, geometric mean, added: vehicle", "endpoint": "AUC(0-27 h)", "value": "3.1 µM·h"}
{"SMILES": "C[C@@H]1O[C@@H](O[C@H]2[C@H](Oc3cc(O)c4c(c3)O[C@H](c3ccc(O)cc3)CC4=O)O[C@H](CO)[C@@H](O)[C@@H]2O)[C@H](O)[C@H](O)[C@H]1O", "test": "mass spectrometry", "test system": "Caco-2", "conditions": "40 µM, 6 h", "endpoint": "Papp A→B", "value": "1.35 ×10⁻⁶ cm/s"}
{"note": "Some of these lines once more:"}
{"SMILES": "COc1c(OCCCN2CCOCC2)ccc2c1N=C(NC(=O)c1cnc(N)nc1)N1CCN=C21", "test system": "human patients, plasma", "conditions": "intravenous, 0.4 mg/kg weekly, cycle 1 day 15, added: refametinib 30 mg twice daily oral", "endpoint": "AUC(0-25 h)", "value": "743 ng·h/mL"}
{"SMILES": "CCN(CC)C(=S)SSC(=S)N(CC)CC", "test": "shake-flask", "test system": "PEG400", "conditions": "37 °C", "endpoint": "thermodynamic solubility", "value": "69.6 ± 3.26 mg/g"}
{"SMILES": "C/C=C/C=C/C=C\\CC/C=C/C(=O)NCC(C)(C)O", "test system": "rat, small intestine site 4 contents", "conditions": "oral, dose not given, 2 h, no β-glucuronidase treatment", "how to read": "reference: ingested amount", "endpoint": "recovery", "value": "0.02%"}
